Results from different studies.
Every numbered part comes from another study and shows a few of its results, in no order. Substitutions count along the parent as printed.

Block 1 — target: CCNB2, cyclin fold, Cln2 fusion (human); method: yeast growth competition, sequencing; sample: yeast; setting: weak parent motif; reference: not given; direction: higher = stronger binding
Starting sequence: RBL2 docking peptide (human); STTRRRLFVENDS; partner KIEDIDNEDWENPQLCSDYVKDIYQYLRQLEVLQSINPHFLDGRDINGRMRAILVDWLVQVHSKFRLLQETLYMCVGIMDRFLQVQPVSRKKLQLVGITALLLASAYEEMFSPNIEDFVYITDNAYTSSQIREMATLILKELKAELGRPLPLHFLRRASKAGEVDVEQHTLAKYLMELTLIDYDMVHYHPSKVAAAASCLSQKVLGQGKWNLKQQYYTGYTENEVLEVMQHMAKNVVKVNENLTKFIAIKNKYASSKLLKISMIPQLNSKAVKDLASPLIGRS
For `STTRRRLFAENDS [V9A]`, “normalised enrichment score” read 0.658.
Under “normalised enrichment score”, `ITTRRRLFVENDS [S1I]` is recorded as 0.25.
Under “normalised enrichment score”, `STLRRRLFVENDS [T3L]` is recorded as 0.781.
`STTRRRLFVENDM [S13M]` — result for “normalised enrichment score”: 0.345.
Under “normalised enrichment score”, `STTRRRWFVENDS [L7W]` is recorded as 0.329.
For `STTRRWLFVENDS [R6W]`, “normalised enrichment score” read 0.248.
For `WTTRRRLFVENDS [S1W]`, “normalised enrichment score” read 0.0192.
`STTHRRLFVENDS [R4H]`: “normalised enrichment score” 0.118.
`STTRRRLMVENDS [F8M]`: “normalised enrichment score” -0.0936.
For `LTTRRRLFVENDS [S1L]`, “normalised enrichment score” read 0.127.
`STTRRRLFVDNDS [E10D]` — result for “normalised enrichment score”: 0.848.
`STTRIRLFVENDS [R5I]` — result for “normalised enrichment score”: 0.134.
`STTRRRLFVLNDS [E10L]` — result for “normalised enrichment score”: 0.141.
`STTWRRLFVENDS [R4W]`: “normalised enrichment score” 0.0448.
Under “normalised enrichment score”, `STTRRRLSVENDS [F8S]` is recorded as 0.168.
For `STTRRRLFVENDC [S13C]`, “normalised enrichment score” read 0.344.
For `STTVRRLFVENDS [R4V]`, “normalised enrichment score” read 0.412.

Block 2 — method: RNAcompete; molecule type: RNA; sample: in vitro; tested at: 20 nM; setting: 7-mer, probes averaged, single round; reference: mean of 7-mers; direction: higher = stronger binding
Target: PABPC1L2, full length, GST fusion (mouse, UniProt A0ABA7IW68)
Construct (chain): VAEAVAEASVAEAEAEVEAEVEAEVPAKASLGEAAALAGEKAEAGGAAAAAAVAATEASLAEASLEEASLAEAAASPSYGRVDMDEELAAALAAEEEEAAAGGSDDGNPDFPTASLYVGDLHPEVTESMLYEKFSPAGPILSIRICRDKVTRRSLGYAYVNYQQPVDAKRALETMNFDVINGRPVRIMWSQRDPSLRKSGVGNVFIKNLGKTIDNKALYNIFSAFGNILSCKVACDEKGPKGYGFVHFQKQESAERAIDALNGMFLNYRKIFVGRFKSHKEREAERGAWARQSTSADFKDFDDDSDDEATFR
`AGUUUUA` has a 7-mer Z-score of -0.206.
The 7-mer Z-score of `UGACUUC` is reported as -0.333.
`GGAAUUC` gave a 7-mer Z-score of -0.141.
The 7-mer Z-score of `ACCUCGA` is reported as -0.179.
`UCAUCUU` has a 7-mer Z-score of -0.374.
For `CUGGCAC`, the 7-mer Z-score was 0.00979.
With `GCGGAAU` the 7-mer Z-score was 0.329.
The 7-mer Z-score of `CUUAAAU` is reported as 0.331.
For `UUCCUGC`, the 7-mer Z-score was -0.251.
For `ACGCACU`, the 7-mer Z-score was -0.0101.
`CAGUCCA` has a 7-mer Z-score of -0.217.
The 7-mer Z-score of `UUACAAG` is reported as -0.0645.
`GUGUUGG` has a 7-mer Z-score of -0.213.
With `GCGCUGG` the 7-mer Z-score was 0.0623.
With `AAUUUCU` the 7-mer Z-score was -0.269.
The 7-mer Z-score of `AAGUACG` is reported as 0.126.
`AUAUUGA` has a 7-mer Z-score of -0.0699.
With `UAGGGCA` the 7-mer Z-score was 0.354.
With `GGUACAG` the 7-mer Z-score was 0.0279.
For `AAUUGUU`, the 7-mer Z-score was -0.144.
`GCGAAGU` gave a 7-mer Z-score of 0.0134.
The 7-mer Z-score of `UGAUCGU` is reported as -0.238.

Block 3 — method: protein-binding microarray; molecule type: double-stranded DNA, one strand shown; sample: in vitro; tested at: 940 nM top; setting: 60-bp whole probe; added: salmon DNA 0.4 mg/ml; reference: random background probes; direction: higher = stronger binding; shared flanks, not repeated: GCCTAGCAC … GTCTTGATTCGCTTGACGCTGCTG
Target: Interferon regulatory factor 5, full length, phosphomimetic (IRF5, Homo sapiens, UniProt Q13568-2, residues 1-514, S451D/S453D/S456D/S462D)
For `TCAGCTTCCTCTTTCTCACTGTGCTAG`, “fitted relative affinity” read 1.38 z-score.
`CTAGGTATCCTTCTCCTTTAGTGCTAG` — result for “fitted relative affinity”: 0.542 z-score.
For `GAACCTTGGCCTCTAGGTTTGTGCTAG`, “fitted relative affinity” read -0.532 z-score.
`GACGGTCTCGGTTTGGGGACGTGCTAG` — result for “fitted relative affinity”: 4.62 z-score.
`GACGGTATCCGGTTTCGGGACGTGCTA` — result for “fitted relative affinity”: 3.19 z-score.
`TTAGGTCTCGCTTTCGGTTAGTGCTAG` — result for “fitted relative affinity”: 4.92 z-score.
`TAGTCTCTTCTGCAGCCTTTGTGCTAG`: “fitted relative affinity” 0.948 z-score.
`TTAGACCTGAGTATCGATTAGTGCTAG` — result for “fitted relative affinity”: 4.25 z-score.
`GACGGGATCGGGACTGGGGACGTGCTA` — result for “fitted relative affinity”: -0.223 z-score.
For `TTAGGTTTCGGACTGGGTGAGTGCTAG`, “fitted relative affinity” read 7.78 z-score.
For `GACGCTATCGGGACTGGAGACGTGCTA`, “fitted relative affinity” read 0.187 z-score.
`GTGTGTTTGAGTCTTCTCCTGTGCTAG` — result for “fitted relative affinity”: -0.0371 z-score.
Under “fitted relative affinity”, `TCACCTCCCTGTTTCCAACTGTGCTAG` is recorded as 0.801 z-score.
Under “fitted relative affinity”, `TCACCTTGATGTCTGGGACTGTGCTAG` is recorded as -0.272 z-score.
`GACGACTTCAGTTTCGAGACGTGCTAG`: “fitted relative affinity” 4.51 z-score.
`TCATGACACCGATTTCATACTGTGCTA` — result for “fitted relative affinity”: -0.0697 z-score.
`TCATATATCATTTAATTACTGTGCTAG` — result for “fitted relative affinity”: 0.752 z-score.
`TTAGGTTTCCTTCTCCATTAGTGCTAG`: “fitted relative affinity” 1.83 z-score.
For `GACCAACTGGGGTATCGAGACGTGCTA`, “fitted relative affinity” read 1.18 z-score.

Block 4 — method: DHFR PCA, deep sequencing; sample: yeast; added: (+)-ABA 2500 µM; reference: wild-type fitted maximum; direction: higher = stronger binding
Target: ABI1, truncated, D143A, DHFR fusion (Arabidopsis thaliana)
Setting: methotrexate growth selection, single substitutions
Starting sequence: PYL1, truncated, DHFR fusion (Arabidopsis thaliana); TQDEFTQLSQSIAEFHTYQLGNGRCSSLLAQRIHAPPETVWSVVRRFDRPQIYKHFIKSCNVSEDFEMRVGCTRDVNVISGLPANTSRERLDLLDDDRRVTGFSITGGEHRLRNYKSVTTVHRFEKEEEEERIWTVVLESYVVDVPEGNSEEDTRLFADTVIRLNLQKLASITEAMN
For `A13Y`, “relative binding score” read 93%.
`S117D`: “relative binding score” 32.9%.
`I12V`: “relative binding score” 90.5%.
Under “relative binding score”, `D144V` is recorded as 84.1%.
Under “relative binding score”, `Q19D` is recorded as 103%.
`E128H` — result for “relative binding score”: 95.2%.
`N77G`: “relative binding score” 98.6%.
`F124I`: “relative binding score” 95.3%.
`E127H` — result for “relative binding score”: 93.3%.
`D95E`: “relative binding score” 102%.
`P50I`: “relative binding score” 65.6%.
For `D92L`, “relative binding score” read 82.5%.
Under “relative binding score”, `Q51C` is recorded as 84.7%.
`N114L` — result for “relative binding score”: 64.8%.
Under “relative binding score”, `D65H` is recorded as 101%.
For `S63R`, “relative binding score” read 96.6%.
`V44E`: “relative binding score” 12.8%.

Some of these lines once more (block 4):
`N77G`: “relative binding score” 98.6%.
`E128H` — result for “relative binding score”: 95.2%.
For `A13Y`, “relative binding score” read 93%.
`I12V`: “relative binding score” 90.5%.
`F124I`: “relative binding score” 95.3%.
`S117D`: “relative binding score” 32.9%.
Under “relative binding score”, `Q19D` is recorded as 103%.
`V44E`: “relative binding score” 12.8%.
`E127H` — result for “relative binding score”: 93.3%.
For `S63R`, “relative binding score” read 96.6%.
Under “relative binding score”, `Q51C` is recorded as 84.7%.
